Results of several laboratories.
Protocols differ between the studies behind these lines. Several values in a cell are separate wells, animals, samples, runs or records. ± marks the error that the study gave.

With `COC(=O)c1ccccc1NC(=O)CSc1nnc(C23C[C@H]4C[C@@H](C2)C[C@@H](C3)C4)n1C` the logD was 3.91 (octanol/buffer; pH 7.4).
For `CN(C(=O)n1cnc(-c2cccnc2)c1)C1CCCCC1`, the concentration was 34.2 ± 8.4 ng/g (Wistar rat, midbrain; oral, 10 mg/kg/day of BIA 10-2474, 4 h, repeated 5 days).
`COc1cc(N2CCC3(CCN(C)CC3)CC2)ccc1Nc1ncc(Cl)c(Nc2ccccc2P(C)(C)=O)n1` — result for “absorption lag time”: 0.472 h (population PK model; human; oral, fed subjects).
For `CSc1cc(C)nc(SC)c1NC(=O)CN1CCN(CCSc2nc3ccccc3[nH]2)CC1.Cl`, tissue concentration read “not detected” (mouse, cerebrum; intranasal, 7 days daily, 120 min, 0.01 N HCl 50 µL, LLOQ 0.5 ng/g).
`O=C(Cn1ccc([N+](=O)[O-])n1)N1CCCc2ccccc21` has a logD of 1.99 (octanol/buffer; pH 7.4).
For `CCn1c(=O)c(-c2cc(NC(=O)Nc3ccccc3)c(F)cc2Br)cc2cnc(NC)cc21`, “participants with drug-related TEAE” read 50% (item: lipase increased; healthy human, matched to mild hepatic impairment; oral, 50 mg single dose).
With `Oc1ccc(/C=C/c2cc(O)cc(O)c2)cc1` the total cholesterol was 77 mg/dL and 69 mg/dL and 68 mg/dL (rat, azoxymethane-injected, blood at sacrifice; 100 mg/kg).
The logD of `C[C@@H](O)[C@H](NC(=O)c1ccc(-c2ccccc2)cc1)C(=O)NCC1(C)NC(=O)NC1=O` (some centres unmarked) is reported as 1.82 (octanol/buffer; pH 7.4).
For `O=C(Nc1nc2cccc(-c3ccc(CN4CCS(=O)(=O)CC4)cc3)n2n1)C1CC1`, “treatment-emergent adverse events” read 0% (item: asthenia; human rheumatoid arthritis patients; oral, 30 mg once daily, 4 weeks, regardless of relatedness).
`C=CC(=O)N1CCC[C@@H](n2nc(-c3ccc(Oc4ccccc4)cc3)c3c(N)ncnc32)C1` — result for “cysteine adduct formation”: 9% (MES buffer; 100 µM, 23 h, pH 5.5, 37 °C, together with: cysteine 10 mM).
`COc1ccc(F)cc1C(=O)NCc1ccc(-c2nn([C@@H](C)C(F)(F)F)c(N)c2C(N)=O)cc1` gave a biliary clearance of 0.24 L/h (human; intravenous, 22 µg).
`CNCc1ccc(-c2[nH]c3cc(F)cc4c3c2CCNC4=O)cc1`: “patients with adverse event” 0% (item: Dysgeusia; human patients; oral, 600 mg twice daily, grade 3).
`CC(C)(C(=O)N1CCOc2c(C#N)cncc2C1)C(F)F`: “subjects with adverse event” 0% (item: Palpitations; human; oral, 10 mg once daily, 14 days, multiple ascending dose).
The logD of `C=CCOc1ccc([C@H]2CN(C(=O)OCC)C[C@@H](c3cc(O)c(O)c(Cl)c3)N2)cc1` is reported as greater than 4.7 (shake-flask, 1-octanol/buffer; pH 7.4).
The CL/F of `N#C[C@@]1(c2ccc3c(N)ncnn23)O[C@H](CO)[C@@H](O)[C@H]1O` is reported as 4.32 mL/min/kg (beagle dog, male; oral, 6.5 mg/kg, capsule).
`O=C(Nc1ccc(OC(F)(F)Cl)cc1)c1cnc(N2CC[C@@H](O)C2)c(-c2ccn[nH]2)c1`: “grade ≥2 event rate” 0.3% (per treatment cycle, item: bilirubin increase; human patients; oral, dose not given, 28 day cycle).
For `C[Si](C)(C)O[Si](C)(C)O[Si](C)(C)C`, “enthalpy of phase change” read -8.96 kcal/mol (1-octanol/air; concentration not given).
`CCOc1c([C@H](C)n2nc(C)c3c(N)ncnc32)cc(Cl)c(F)c1[C@@H]1CNC(=O)C1` has a half-life of 8.8 ± 2 h (patients with indolent lymphoma, plasma; oral, 20 mg, day 15, monotherapy).
`Nc1nc2c(nc([N+](=O)[O-])n2[C@@H]2O[C@H](CO)[C@@H](O)[C@H]2O)c(=O)[nH]1`: “nucleoside remaining fraction” 0.927 (depurination, RP-HPLC; citrate-phosphate buffer 0.5 mM; 45 min, pH 2, 37 °C).
For `CC[C@H](C)[C@H](N)C(=O)N[C@H]1CSSC[C@@H](C(=O)N[C@H](C(N)=O)[C@@H](C)O)NC(=O)[C@H](CCCNC(=N)N)NC(=O)[C@H](Cc2c[nH]cn2)NC(=O)[C@H](Cc2c[nH]cn2)NC(=O)CNC(=O)[C@H](Cc2c[nH]c3ccccc23)NC(=O)[C@H](CC(=O)O)NC(=O)[C@H](CCC(N)=O)NC(=O)[C@H](C(C)C)NC(=O)[C@H](C(C)C)NC1=O`, “log retention factor” read -0.44 (isocratic RP-HPLC, C18; 32% acetonitrile, phosphate pH 7.4, 1% TFA; 25 °C).
The intact complex of `O=C(O)CN1CCCN2CCN(CC(=O)O)CCCN(CC1)Cc1cccc(n1)C2` is reported as 97% (64Cu complex; 2 h, 70 °C, together with: DOTA excess).
`CC1(C)CN(CCCCC(=O)N[C@@H](CCC(=O)O)C(=O)N[C@@H](CCC(=O)O)C(=O)N[C@H](CCCCNC(=O)CCCCCCC(=O)NCCCC[C@H](NC(=O)N[C@@H](CCC(=O)O)C(=O)O)C(=O)O)C(=O)O)CC[N]2CC(C)(C)[S][Tc]2(=[O])[S]1` (some centres unmarked) [technetium-99m labelled] has an intact radioligand of 96% (human plasma; 6 h, 37 °C).
With `CCc1cc(C(=O)NC)c2nccc(N3CCc4c(cc(Cn5ccnc5)cc4-c4cn(C)nc4C(F)(F)F)C3=O)c2c1` the body weight was 233 ± 3.8 g (Sprague Dawley rat; oral, 100 mg/kg twice daily, day 5, 7-day toxicology study).
Under “chromatographic hydrophobicity index”, `NCCCN1c2ccccc2CCc2ccccc21` is recorded as 62.3 (reverse phase LC, C18; acetonitrile gradient, 0.1% formic acid; converted from retention time; relative to: Valko CHI standards).
Under “subjects with punctate keratitis”, `C[C@H]1CNCCCN1S(=O)(=O)c1cccc2cncc(F)c12` is recorded as 11.1% (healthy adult men; ocular, 1 drop per eye twice daily, 8 days, adverse drug reaction).
`C=CC(=O)Nc1cc(Nc2nccc(-c3cn(C)c4ccccc34)n2)c(OC)cc1N(C)CCN(C)C` has a recovery of 83.9% (storage stability; human dried blood spots; 5 h, -80 °C, LLOQ level).
For `CN(CCC(=O)O)C(=O)c1ccc2c(c1)CC[C@@H]1[C@@H]2CC[C@]2(C)C(c3cncc(F)c3)=CC[C@@H]12`, “direct bilirubin change” read 0.167 mg/dL (premenopausal women with endometriosis pain, serum; 60 mg twice daily, end of treatment, completers, mean; relative to: baseline).
`Cn1cncc1-c1c(F)cncc1NC(=O)c1c(N)nn2cc(F)cnc12`: “distribution rate constant k21” 0.1 h⁻¹ (two-compartment PK model; xenograft-bearing mice, plasma).
Under “drug-related lymphopenia incidence”, `COc1ccc([C@@H](O)c2cc(-c3ncnc4cc(N5CCOCC5)ccc34)c(F)cc2Cl)nn1` is recorded as 17% (locally advanced rectal cancer patients; 250 mg, together with: capecitabine and radiotherapy).
`Clc1ccc(Nc2ncnc3ccc(-c4cccc(N5CCOCC5)c4)cc23)cc1` gave a CLint of 20 µL/min/mg (human liver microsomes).
For `CCN1CCN(Cc2ccc(Nc3ncc(F)c(-c4cc(F)c5nc(CO)n(C(C)C)c5c4)n3)nc2)CC1`, the intrinsic clearance was 452 L/h (human, liver; population PK model estimate).
Under “adverse event incidence”, `O=C(COc1ccc(Cl)cc1)NC12CC(c3nnc([C@H]4C[C@@H](OC(F)(F)F)C4)o3)(C1)C2` is recorded as 14.3% (item: Myalgia; human; oral, 260 mg once daily, 14 days).
`Cc1cc(NC2CCN(C(=O)OC3CCN(C(=O)/C=C/CN(C)C)C3)CC2)n2ncc(C(C)C)c2n1` (centres unmarked) — result for “patients with adverse event”: 0% (Phase I dose escalation CTCAE v4.0, item: back pain; patients with advanced solid tumours; dose not given, Total dosing grade 3 or higher).
For `CCOC(=O)N1C[C@@H](c2cccc(Br)c2)N[C@@H](C(CC)CC)C1`, the logD was greater than 4.7 (shake-flask, 1-octanol/buffer; pH 7.4).
For `O=C(Nc1cnccc1Cl)N1CCN(Cc2ccc3c(c2)OC(F)(F)O3)CC1`, “adverse event incidence” read 33.3% (item: Haematoma; human healthy young women; 100 mg, multiple dose).
`CCc1nc(C(N)=O)c(Nc2ccc(N3CCC(N4CCN(C)CC4)CC3)c(OC)c2)nc1NC1CCOCC1` — result for “freeze-thaw stability accuracy”: 97.9% (mouse plasma; 425 ng/mL, three freeze-thaw cycles).
`OCc1nc2ccc(NCc3ccc(C(F)(F)F)cc3)cc2[nH]1` has a tissue concentration of 1.5 ± 0.3 ng/g (Balb/c mouse, male, kidney; oral, 10 mg/kg, 48 h).
With `Clc1ccc([C@@H]2COC[C@@H](c3cc(Cl)cc(Cl)c3)N2)cc1` the logD was greater than 4.7 (shake-flask, 1-octanol/buffer; pH 7.4).
The Tmax of `Cl.[2H]C([2H])([2H])CC(=O)c1cnc(NC(=O)C2CC2)cc1Nc1cccc(-c2ncn(C([2H])([2H])[2H])n2)c1OC` is reported as 3.12 h (human, fed, multiple dose; oral, 60 mg once daily, tablet, day 1, median).
For `CC(C)(C)CC(C)(C)c1ccc(O)c(-n2nc3ccccc3n2)c1`, “cumulative dermal absorption” read 92.4 ± 1.5% (reconstructed human epidermis EpiSkin; 36 h).
For `CC[C@H](C)[C@@H]1NC(=O)[C@H](CCCCN)NC(=O)[C@@H]2CCCN2C(=O)[C@@H]2CSSC[C@@H]3NC(=O)[C@H](C)NC(=O)CNC(=O)[C@@H]4CCCN4C(=O)[C@@H]4CSSC[C@H](NC(=O)[C@H](Cc5ccc(O)cc5)NC(=O)CNC(=O)CNC(=O)[C@H]5CCCN5C(=O)[C@H](CCCNC(=N)N)NC(=O)[C@H](CSSC[C@H](NC(=O)[C@H](CCCCN)NC(=O)[C@H](CCCCN)NC(=O)[C@H](CC(C)C)NC1=O)C(=O)N[C@@H](CCCNC(=N)N)C(=O)N[C@@H](CCCNC(=N)N)C(=O)N[C@@H](CC(=O)O)C(=O)N[C@@H](CO)C(=O)N[C@@H](CC(=O)O)C(=O)N4)NC(=O)[C@H]([C@@H](C)CC)NC3=O)C(=O)NCC(=O)N[C@@H](CO)C(=O)NCC(=O)N[C@@H](CO)C(=O)N[C@@H](CC(=O)O)C(=O)NCC(=O)NCC(=O)N[C@@H](C(C)C)C(=O)N2`, “conversion to native product” read 75% (RP-HPLC; NH4HCO3 without redox agents; 72 h, pH 8.5, room temperature, oxidative folding).
The logD of `CCOC(=O)N1C[C@@H](c2sc(N(C)C)nc2C)N[C@@H](c2ccc(F)c3ccccc23)C1` is reported as greater than 4.7 (shake-flask, 1-octanol/buffer; pH 7.4).
`CCn1cc(C(=O)N2CCOCC2)c(=O)c2cc(NC3Cc4ccccc4C3)cnc21` gave a Tmax of 1.5 h (humans, fasted, plasma; oral, 300 mg, single dose, suspension).
With `NC/C(=C\F)COc1cccc(Cn2c(=S)[nH]c(=O)c3[nH]cnc32)c1` the tissue concentration was 148 ng/mL (C57BL/6J mice, lung; oral, 15 mg/kg single, 6 h).
With `CC(C)(C)OC[C@@H]1C(=O)NCCN1C(=O)C[C@H](N)Cc1cc(F)c(F)cc1F` the Vdss/F was 1780 ± 505 L (human, plasma; oral, steady state, EP treatment).
`C[C@@H](Oc1ccc(S(C)(=O)=O)cc1C(=O)N1C[C@@H]2C[C@]2(c2cc(C(F)(F)F)on2)C1)C(F)(F)F` gave a Vz/F of 384 L (elderly humans, plasma; oral, 50 mg once daily, single dose, geometric mean).
Under “urinary magnesium excretion change”, `Cc1ccc([C@@H]2O[C@H](CO)[C@@H](O)[C@H](O)[C@H]2O)cc1Cc1ccc(-c2ccc(F)cc2)s1` is recorded as 19.9 mg (Japanese type 2 diabetes patients; 100 mg, day 2, 24 h urine collection; relative to: baseline).
`CCCn1cc(C)c2c(=O)[nH]c(-c3cc(S(=O)(=O)N4CCN(CC)CC4)ccc3OCC)nc21` has a flushing incidence of 38.9% (human).
`COc1cc2c(cc1OC)CN(CCc1ccc(NC(=O)c3cccc4c(=O)c5cccc(OC)c5[nH]c34)cc1)CC2`: “total plasma concentration” 3270 ng/mL (Sprague Dawley rats, plasma; iv infusion, 8.9 mg/h/kg, 4 h).
For `Cc1ccc(Sc2ccccc2N2CCNCC2)c(C)c1`, “participants with TEAE” read 0% (item: Nausea; healthy adult men; oral, 10 mg daily, 12 days).
`O=C(O)CCC(=O)O.[2H]C([2H])([2H])Oc1cc(C)c2[nH]ccc2c1CN1CC[C@@H](C2CC2)C[C@H]1c1ccc(C(=O)O)cc1`: “subjects with elevated triglycerides TEAE” 12.5% (multiple ascending dose; healthy Chinese subjects; 100 mg twice daily).
For `CCN1CCN(Cc2ccc(Nc3ncc(F)c(-c4cc(F)c5nc6n(c5c4)[C@H](C)CCC6)n3)nc2)CC1`, the Tmax was 9.97 h (human, Phase Ib patients, plasma; 400 mg, single dose, median, together with: fulvestrant).
For `FC(F)(F)c1ccc(CNc2ccc(Cc3c[nH]c4ncc(Cl)cc34)cn2)cn1`, “treatment-related adverse events” read 40% (item: Fatigue; patients with advanced solid tumours, non-TGCT cohort; oral, 1000 mg/day, any grade).
`CCN1/C(=C/C(C)=O)Sc2ccc(F)cc21`: “QTc interval (Bazett)” 328 ± 14 ms (cynomolgus monkey; oral, 100 mg/kg, 2 h post-dose).
For `Cc1c(Cl)c(C)[n+]([O-])c(Cl)c1-c1noc(-c2cc(O)c(O)c([N+](=O)[O-])c2)n1`, “adverse drug reaction incidence” read 0% (item: Bloating; healthy Chinese subjects; oral, 100 mg, 4 days).
`O=C(OC(C(F)(F)F)C(F)(F)F)N1CCN(Cc2cccc(Oc3ccccc3)c2)CC1` has a Ktrans of 0.0008 min⁻¹ (PET blocking study; rhesus monkey, brain OCC; 0.03 mg/kg, compound pretreatment, together with: [18F]T-401 tracer).
